Measurements from different studies.
Numbered parts are unrelated; each lists some results of a single study. Positions count from the first letter of the parent shown.

Set 1
Target: CCNB1, cyclin fold, Cln2 fusion (human)
Method: yeast growth competition, sequencing
Medium: yeast
Setting: weak parent motif
Baseline: not given
Direction: higher = stronger binding
Starting sequence: CDC6 docking peptide (human); TLKGRRLVFDNQL
Under “normalised enrichment score”, `TLKGRRLVFDEQL [N11E]` is recorded as 0.299.
For `TLKGRRLVFDNDL [Q12D]`, “normalised enrichment score” read 0.466.
`TLKGRRLVFPNQL [D10P]`: “normalised enrichment score” -0.365.
Under “normalised enrichment score”, `TLKGRRLVFDWQL [N11W]` is recorded as 1.18.
`TLKGRRLVFDNQN [L13N]`: “normalised enrichment score” 0.0703.
`TLKGRRLVFDNCL [Q12C]` — result for “normalised enrichment score”: -0.0685.
Under “normalised enrichment score”, `TLKGRRLPFDNQL [V8P]` is recorded as 0.11.
`TLKGRRQVFDNQL [L7Q]`: “normalised enrichment score” 0.847.

Set 2
Target: ABI1, truncated, D143A, DHFR fusion (Arabidopsis thaliana)
Method: DHFR PCA, deep sequencing
Medium: yeast
Setting: methotrexate growth selection, single substitutions
With: (+)-ABA 200 µM
Baseline: wild-type fitted maximum
Direction: higher = stronger binding
Starting sequence: PYL1, truncated, DHFR fusion (Arabidopsis thaliana); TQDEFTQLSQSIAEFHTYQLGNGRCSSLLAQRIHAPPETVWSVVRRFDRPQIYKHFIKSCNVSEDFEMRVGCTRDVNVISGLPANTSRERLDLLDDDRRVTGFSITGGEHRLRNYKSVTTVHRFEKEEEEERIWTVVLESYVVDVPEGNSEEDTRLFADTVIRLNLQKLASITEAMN; partner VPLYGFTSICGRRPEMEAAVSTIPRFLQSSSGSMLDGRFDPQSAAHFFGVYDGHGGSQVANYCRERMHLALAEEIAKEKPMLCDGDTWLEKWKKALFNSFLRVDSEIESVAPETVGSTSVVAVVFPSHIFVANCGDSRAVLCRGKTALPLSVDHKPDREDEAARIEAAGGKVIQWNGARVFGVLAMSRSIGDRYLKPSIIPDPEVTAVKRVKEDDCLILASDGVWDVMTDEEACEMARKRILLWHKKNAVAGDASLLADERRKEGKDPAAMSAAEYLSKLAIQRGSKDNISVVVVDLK
`R90A`: “relative binding score” 76.2%.
For `N85Q`, “relative binding score” read 108%.
Under “relative binding score”, `G102E` is recorded as 31%.
Under “relative binding score”, `E109V` is recorded as 95.1%.
Under “relative binding score”, `A30I` is recorded as 97.5%.
`L169D`: “relative binding score” -9.48%.
For `E147Q`, “relative binding score” read 93.6%.
Under “relative binding score”, `V121N` is recorded as -0.992%.
Under “relative binding score”, `Q7H` is recorded as 96.6%.

Set 3
Target: Sal-like protein 4, full length isoform B (SALL4, Homo sapiens, UniProt Q9UJQ4-2, residues 1-616)
Method: universal PBM
Molecule type: double-stranded DNA, one strand shown
Medium: in vitro
Tested at: not given
Setting: 8-mer, flanks averaged, mean of replicates
Direction: higher = stronger binding
For `CAGCGAAC`, the E-score was -0.139.
With `CTGATTGA` the E-score was 0.00568.
`GTTGTGCA` gave an E-score of -0.133.
The E-score of `AGTTTACC` is reported as 0.00218.
With `CTCAACCC` the E-score was -0.204.
`CAGTAAAC` gave an E-score of 0.146.
`ACGTAACA` gave an E-score of 0.167.
The E-score of `GATCCAAC` is reported as -0.0481.
The E-score of `AAGTTACA` is reported as 0.11.
With `AGCGTATC` the E-score was -0.0719.

Mixed results
The fold induction of `PhoQ, residues 284 288 289 292 302 303 TYGVAM` is reported as 11.4 (PhoP, residues 12 14 15 18 19 LHHSG (Escherichia coli, UniProt P23836); Sort-seq, item: YFP reporter; E. coli; PhoQ-PhoP variant library, with: 10 µM Mg2+; baseline: high Mg2+ state, higher = stronger signaling).

For quick reference, copied from above (set 3):
For `CAGCGAAC`, the E-score was -0.139.
With `CTGATTGA` the E-score was 0.00568.
`GTTGTGCA` gave an E-score of -0.133.
